Results gathered from unrelated publications.
Parts stem from different laboratories: compare values within a part only. Substitutions count along the parent as printed.

Set 1
Target: RING finger protein unkempt homolog, zinc fingers 1-6, GST-SBP tag (UNK, Homo sapiens, UniProt Q9C0B0, residues 30-357)
Chain of UniProt Q9C0B0 (30-357, looked up): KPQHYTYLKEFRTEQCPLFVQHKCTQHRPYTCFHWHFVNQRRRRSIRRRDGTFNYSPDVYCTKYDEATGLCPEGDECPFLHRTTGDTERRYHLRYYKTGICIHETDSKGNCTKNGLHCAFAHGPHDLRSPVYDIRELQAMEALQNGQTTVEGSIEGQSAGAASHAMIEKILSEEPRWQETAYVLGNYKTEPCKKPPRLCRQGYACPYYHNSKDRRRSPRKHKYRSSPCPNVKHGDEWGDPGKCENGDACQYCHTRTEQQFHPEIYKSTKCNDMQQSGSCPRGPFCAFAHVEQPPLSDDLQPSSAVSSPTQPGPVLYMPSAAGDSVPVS
Method: RNA Bind-n-Seq
Molecule type: RNA
Medium: in vitro
Tested at: not given
Notes: RNA with constant flanks, human and mouse sites, ends assumed
Relative to: input RNA pool
Reading: higher = stronger binding
Measurement: bound/input enrichment
Constant ends, left off below: GGGAGUUCUACAGUCCGACGAUC … CAACAGAGGAUUGAGCAUCA
GUAACGCUGCUGCCCGGAGCCGCGUUGGAGGCCUCCCUUCCCAUUAAGUGCCUCUUUGCAUAGCACCGGCCCCACCCCCACGCUCACUGGUACUACUACAGAGCAGCGCGCCAUGGCGGG: 0.274 ratio
GGCUAUUUGAAAUAGACUAGAUUGUGUUGUCAAAUCAAGAAUGGGUGUGCAUGUGCUUGUCUUAGAAGUAUCACUGCUUUUUGCAUCUUAACUGCAGUUAAUUUUCCUUCCGACUGCGGU: 0.953 ratio
ACACCCACGAUCCAGUGUCUGCUUUACCUAUUUAUUUUUUAAGUUUUUUUAACGUCUGCUUUUAGAAGUGGAGCUUUGACAGGGUGUUUGCUCGAUAGAAAGGCAGCCUCUGUCCUUAAG: 7.37 ratio
AAUGGACAAGAAGUCAAAAUCGAUCAGAGAAAUGUUAAAAAAGAGUUCACUAGCCAUGCUUUAGAUUCUCAUAUCUUAGAUUAUUAUGAAAAUCCAGCCAUCAAAGAGGAUGUAUCAACA: 1.05 ratio
GAUUAUGUGCCUGCCUUAAAAGGUUUGGGUGAGUGCCACCUGUUGCUGGGGAAGGUGGCCUUAGUGGAUUUUCUGGAUGGAAAAGCUGUGGACUAUGUGGAACAAGCGCUGGGAUAUUUC: 0.947 ratio
CUAUAGAGGGAAAUAAUAGACAGAUUAAGAUGAAAGAAAAGCUUUCUGGGAUGAUUCAGUUAUAGGAAAUGCCAAGAAAAGGGCAUUUAAUUAUAAUAUCCUAAUUUUACAUCACAACAU: 0.906 ratio
UUUGCAAGAAAAAAGACCCGUGUCCUGUCCUUUGUUUGUAACAGUUGCAACACUUGAUAUUUUAGAGGGGUCUUUUACUCUCUUCAAACGUCCUUGAUGUGGUCUGUAAAUUCUGUUUCA: 0.232 ratio
GUGAACCCAGUGGAAUUCUUCCGCCCUGAUAUUUCUCUGUUGGACAGAGACAAUGUUGGAUUAGUUUUACUCUUACAGCCCAAAAUUCCAUAUGCUGCCUGCCCUGCAAUCUGCGUAGCA: 2.45 ratio

Set 2
Target: CCNE1, cyclin fold, Cln2 fusion (human)
Method: yeast growth competition, sequencing
Medium: yeast
Notes: weak parent motif
Relative to: not given
Reading: higher = stronger binding
Measurement: normalised enrichment score
Starting sequence: MICAL3 docking peptide (human); LQLRRQLSFSEDS
L3K: 0.0853
L3Y: 3.2
S8F: 1.19
R4Y: 0.167
R4F: 0.473
S8H: 0.896
F9K: 0.153
S10H: 0.466
Q2R: 1.04
L3R: 0.256
R4N: 0.37
Q2K: 0.949
D12W: 0.995

Set 3
Target: RNA binding protein fox-1 homolog 2, RRM domain, GST-SBP tag (RBFOX2, Homo sapiens, UniProt O43251-10, residues 100-194)
Method: RNA Bind-n-Seq
Molecule type: RNA
Medium: in vitro
Tested at: 365 nM
Notes: natural RNA segment, single round, ends assumed
Relative to: no-protein control
Reading: higher = stronger binding
Measurement: RBNS enrichment (R)
Constant ends, left off below: GGGAGUUCUACAGUCCGACGAUC … UGGAAUUCUCGGGUGCCAA
Residues (chain): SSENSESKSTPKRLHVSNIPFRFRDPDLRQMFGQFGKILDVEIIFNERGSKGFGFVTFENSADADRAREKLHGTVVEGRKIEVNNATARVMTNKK
UCCUCUCCCCAGCCCCCCUUACCUUCACUCCCAUACUGGACAAGACAUUUUGGACAUGAGUUCAAGGGGGCAGGUUAAUUCCUGGCAUUGCCAGUUUUCUUCAUUCAGAA: 0.389
GAAGCUGAUUUCAUCUAAGGAUGGGUUGAAGUAGGAUGUGCUCCUGCGACUUCUCAGGCAGGUGAGAGGGGUAGUCCUUACACUGUCUAGCAUAAACGCCUUCCGGAAGG: 0.48
CGGCCACCUUCCCUCCCAUCUUUGGCAGACAGAAGUCUCAGCUCUCACUAGAGGGAAGACCUGGGCAUCCUGCUGGCUCCUCUCUCCGUGGGGCCUGGAGUCUGGUGCUG: 0.22
CUGUCCCCUCACCCCCUCUCCUGUAUUUCUCAGGUCCAGUUCAAAUCUAAAAUUCUACUUUUAGAGUUGAAACAGAGUAAUAACUUAUCUAACCCUCUUUUCCUACAAAG: 0.582
GUUUUUUGAGAGAGACUGAGAGAACCAUAAUCCUUGCCUGCUGAACCCAGCCUGGGCCUGGAUGCUCUGUGAAUACAUUAUCUUGCGAUGUUGGGUUAUUCCAGCCAAAG: 0.388
UAUGCUGUUUCCAAAAGGCCAAAUAAACCAGGAUUUUCUCUGGAUGCUUGGAGAAAGAAGAAACCCUAUUCUUGUUUUAGUAUCUUGAUCUCAUUAGUUUAUAGGCGUUG: 0.472
GGGUGGAAAACUAGAGAGAUCACCCUCGACCUGCCUGGGUAGGGCUGGCAGUAGCUGUCCCAGCCUCAGCUCCUGGCCCGGUCCUGGGGUUCCCUCUUCACAGUCCCCGU: 0.282
CCAAGAACUAUAUUUCUUUCAUGAACUCAGCCCUGGAAGUUGCUUUUUUCUGCCAAAAGGAGCCUACAUUUAUAAUGCACUUAUUGAAUUCAUUAGGGGCGAAUAUAGGA: 0.618

Single results of other studies
PhoQ, residues 284 288 289 292 302 303 TASMAF — fold induction (PhoP, residues 12 14 15 18 19 HHYTI (Escherichia coli, UniProt P23836); Sort-seq, refers to: YFP reporter; E. coli; PhoQ-PhoP variant library, added: 10 µM Mg2+; relative to: high Mg2+ state, higher = stronger signaling): 4.43

Excerpt of the above (set 3):
UAUGCUGUUUCCAAAAGGCCAAAUAAACCAGGAUUUUCUCUGGAUGCUUGGAGAAAGAAGAAACCCUAUUCUUGUUUUAGUAUCUUGAUCUCAUUAGUUUAUAGGCGUUG: 0.472
CCAAGAACUAUAUUUCUUUCAUGAACUCAGCCCUGGAAGUUGCUUUUUUCUGCCAAAAGGAGCCUACAUUUAUAAUGCACUUAUUGAAUUCAUUAGGGGCGAAUAUAGGA: 0.618
